# Measured values collected from several papers.
# Lines come from different studies, so protocols differ. Values joined by “and” are separate records of one study, mostly repeats; a detail may differ. ± marks the error that the study gave.
SMILES,tested on,assay,test system,setting,how to read,endpoint,value
Cn1c(=O)c(F)c(Nc2ccc(I)cc2F)c2c(=O)n(C[C@@H](O)CO)cnc21,IDO1 human,inhibitor,A-431,"1 µM, added: IFN-γ",,kynurenine production,80.9%
CC(C)C[C@H](NC(=O)[C@@H](O)[C@H](N)Cc1ccccc1)C(=O)O,aminopeptidase W (pig),"enzyme activity, inhibitor",,,,IC50,7.9 µM
O=S(=O)(c1ccccc1)N(CC(F)(F)F)c1ccc(C(O)(C(F)(F)F)C(F)(F)F)cc1,LXR-alpha,"reporter gene, agonist",THP-1 luciferase reporter,24 h,,EC50,0.079 ± 0.0011 µM
CCn1cc(-c2cc(Cn3ccnc3)cc3c2CCN([C@H](c2cc(OC)ccn2)C2CC2)C3=O)c(C(F)(F)F)n1,HCC78,"cell growth, inhibitor",,120 h,,EC50,15.3 µM
Cc1cc2nc3c(=O)[nH]c(=O)nc-3n(C[C@H](O)[C@H](O)[C@H](O)COP(=O)(O)O)c2cc1C,,"binding, MIDAS equilibrium dialysis LC-MS",A2AR-BRIL thermostabilized,concentration not given,baseline: no-protein control,log2 fold change,-0.322
O=C(NS(=O)(=O)c1ccccc1-c1ccccc1)c1cc2ccc(OCCO)cc2o1,"estrogen receptor alpha, human",reporter gene,MCF7-MVLN,24 h,,IC50,> 20 µM
NC(=O)c1ccc[n+](C2OC(COP(=O)(O)OP(=O)(O)OCC3OC(n4cnc5c(=O)[nH]cnc54)C(O)C3O)C(O)C2O)c1 (stereo not shown),,"binding, MIDAS equilibrium dialysis LC-MS",A2AR-BRIL thermostabilized,concentration not given,baseline: no-protein control,log2 fold change,-0.16
CC(=O)O[C@H]1C(=O)[C@@]2(C)[C@H]([C@H](OC(=O)c3ccccc3)[C@]3(O)C[C@H](OC(=O)[C@H](O)[C@@H](NC(=O)c4ccccc4)c4ccccc4)C(C)=C1C3(C)C)[C@]1(OC(C)=O)CO[C@@H]1C[C@@H]2O,tubulin,"tubulin polymerization, inhibitor",MDA-MB-231,"50, 100, 500 ppm",,geometric mean inhibition,61.7%
COc1cnc(Nc2cccc(S(N)(=O)=O)c2)nc1N1CCN(c2ccccc2)CC1,human FLT3 ITD/F691L,"binding, KINOMEscan",,1000 nM,lower = stronger binding,percent of control,89%
COc1cccc(CNC(=O)C#Cc2cn(Cc3ccc(C(=O)O)cc3)c(=O)[nH]c2=O)c1,MMP-7,"inhibitor, colorimetric",,20 µM,,remaining MMP-7 activity,107 ± 23%
Cn1cc(-c2ccc(-c3cncc(Cl)c3N3CCC4(CCNC4=O)CC3)cc2)cn1,COLO 205,"microarray, refers to: LCN2",,"concentration not given, 2 h, gene set NGAL",baseline: untreated cells,fold change in expression,2.21
[Ca+2],human TRPA1,"ion current, two-electrode voltage clamp",Xenopus oocytes,"-80 mV, added: AITC",,desensitization time constant,6.46 s and 8.17 s and 2.97 s and 8.33 s and 34.8 s
C#Cc1cc(-c2cc(Nc3nc(N[C@@H](C)c4ccc(F)cn4)ncc3Cl)n[nH]2)ccc1C=O,"RET R921P, human","kinase activity, inhibitor",,0.2 µM,,inhibition,11.7% and 12.8%
CC[S+]([O-])c1nc(-c2ccccc2)cc(C(F)(F)F)n1 (stereo not shown),transportin-1/2,"FUS nuclear import, high content imaging",HeLa Kyoto reporter,"15.8 µM, 2 h",,cells with nuclear reporter,94.4% and 97.2%
O=C(O)[C@@H]1CCCN1c1ncnc2[nH]cnc12 (racemic),human THEMIS domain,"binding, affinity selection mass spectrometry",,,baseline: other proteins in batch,fold enrichment,0.87
COc1ccc(C(=O)COc2ccc(N3C(=O)[C@@H]4[C@@H]5C=C[C@@H]([C@H]6C[C@@H]56)[C@@H]4C3=O)cc2)cc1,lanosterol synthase (mouse),,Mut6,"0.1 µM, 24 h",,peak EPC level,390 ng/mg protein
c1coc(-c2n[nH]cc2-c2ccnc3ccccc23)c1,SKY1 (Candida albicans),"kinase binding, MIB/MS competition",Candida albicans lysate,1 µM,baseline: DMSO,log2 fold change,0.26
CNCc1ccc(-c2cc(-c3nc(-c4ccc(S(=O)(=O)C(C)C)cc4)cnc3N)on2)cc1,CK1 (yeast),inhibitor,,"2 µM, added: ATP at Km",,inhibition,8%
C[n+]1cccc2cc(C=NNC(=O)c3ccc4ccc5ccc(C(=O)NN=Cc6ccc7c(ccc[n+]7C)c6)nc5c4n3)ccc21.[I-].[I-],22CTA telomeric G4-DNA antiparallel,FRET melting,,"1 µM, K10 buffer, DNA 0.2 µM, added: ds26 10 µM",,ΔTm,22.6 ± 0.7 °C
CCCN(C)c1ccc2cc(C(=O)NS(=O)(=O)c3ccccc3-c3ccccc3)oc2c1,"estrogen receptor alpha, human",reporter gene,MCF7-MVLN,24 h,,IC50,> 20 µM
CCS(=O)(=O)c1nc(C2CC2)cc(C(F)(F)F)n1,transportin-1/2,"FUS nuclear import, high content imaging",HeLa Kyoto reporter,"0.5 µM, 2 h",,cells with nuclear reporter,93.7% and 93.6%
C=CC[C@@]1(C)C(=O)[C@H](C)[C@@H](O)[C@@H](C)CCC/C(COC(=O)C=C)=C\C[C@@H](/C(C)=C/c2csc(C)n2)OC(=O)C[C@@H]1O,tubulin,"tubulin assembly, stimulator",cell-free,,,EC50,0.583 ± 0.064 µM

# A few entries again:
SMILES,tested on,assay,test system,setting,how to read,endpoint,value
CC[S+]([O-])c1nc(-c2ccccc2)cc(C(F)(F)F)n1 (stereo not shown),transportin-1/2,"FUS nuclear import, high content imaging",HeLa Kyoto reporter,"15.8 µM, 2 h",,cells with nuclear reporter,94.4% and 97.2%
